Measurements gathered from unrelated publications.
Each line is one published result; not all experiments were run side by side.

`O=C(Oc1cc(OC(=O)c2cc(O)c(O)c(O)c2)c2ccccc2c1)c1cc(O)c(O)c(O)c1` gave a CC50 of 72.8 µM (BEAS-2B; cell growth or viability, MTT; 48 h).
With `Cc1cccnc1-c1csc(C(=O)Nc2cc(Cl)cc(NS(C)(=O)=O)c2)c1` the CC50 was greater than 10 µM (HLF; cell growth or viability, ATP luminescence; 10 days).
The CC50 of `COc1c(F)c(F)c(Cn2c3cc(=O)n(Cc4cccc(C(F)(F)F)n4)c(C)c3c(=O)n2-c2ncc(F)cc2F)c(F)c1F` is reported as greater than 10 µM (HEp-2; 48 (unit not given)).
With `O=C1C(NCCc2ccc(O)cc2)=CC2=NCCc3c(Br)[nH]c1c32` the CC50 was 5 µM (HCT-116; cell growth or viability, MTT; 72 h).
`O=C(O)c1ccc(Nc2c(-c3ccccc3)nc3cc(-c4ccccc4)ccn23)cc1` has a CC50 of 50 µM (HCT-116; cell growth or viability; 72 h).
For `O=C1C(NCCc2ccc(O)c(Br)c2)=CC2=NCCc3c[nH]c1c32`, the CC50 was 4 µM (HCT-116; cell growth or viability, MTT; 72 h).
The CC50 of `COc1ccc(Cn2c3cc(=O)n(Cc4cccc(C(F)(F)F)n4)c(C)c3c(=O)n2-c2ccccn2)cc1` is reported as greater than 5 µM (HEp-2; 48 (unit not given)).
`CC1(C)C(NC(=O)C(=NOC2(C(=O)O)CC2)c2csc(N)n2)C(=O)N1OS(=O)(=O)O` (stereo not drawn) has a CC50 of greater than 100 µM (U-2940; cell growth or viability).
The CC50 of `Cc1ccc(S(=O)(=O)n2cc3c4c2C(=O)C(NCCc2ccc(O)cc2)=CC4=NCC3)cc1` is reported as 2 µM (HCT-116; cell growth or viability, MTT; 72 h).
The CC50 of `COc1ccc(Cn2c3cc(=O)n(Cc4cccc(Cl)n4)c(C)c3c(=O)n2-c2ccccn2)cc1` is reported as greater than 50 µM (HEp-2; 48 (unit not given)).
`COc1c(Br)cc(CCNC2=CC3=NCCc4c[nH]c(c43)C2=O)cc1Br` gave a CC50 of 10 µM (HCT-116; cell growth or viability, MTT; 72 h).
The CC50 of `COc1ccc(Cn2c3cc(=O)n(Cc4cccc(Cl)n4)c(C)c3c(=O)n2-c2ncc(F)cc2F)cc1` is reported as greater than 45 µM (HEp-2; 48 (unit not given)).

Excerpt of the above:
The CC50 of `COc1ccc(Cn2c3cc(=O)n(Cc4cccc(Cl)n4)c(C)c3c(=O)n2-c2ncc(F)cc2F)cc1` is reported as greater than 45 µM (HEp-2; 48 (unit not given)).
The CC50 of `COc1ccc(Cn2c3cc(=O)n(Cc4cccc(Cl)n4)c(C)c3c(=O)n2-c2ccccn2)cc1` is reported as greater than 50 µM (HEp-2; 48 (unit not given)).
